Measured values of several laboratories.
Compare with care: the assays were run in different laboratories. ± marks the error that the study gave.

`C#C[C@]1(O)CC[C@H]2[C@@H]3CCc4cc(O)ccc4[C@H]3CC[C@@]21C` has an AUC(0-24h) ratio of 1.11 (postmenopausal women with type 2 diabetes; oral, dose not given, together with: semaglutide steady state; baseline: with over without semaglutide).
For `CNC(=O)c1cc(Oc2ccc(NC(=O)Nc3ccc(Cl)c(C(F)(F)F)c3)c(F)c2)ccn1`, the AUC(0-24h) was 55.9 µg·h/mL (metastatic colorectal cancer patients, plasma; oral, 120 mg once daily, steady state, alone).
For `CN(C)C(=O)c1cc2cnc(Nc3ccc(N4CCNCC4)cn3)nc2n1C1CCCC1`, the AUC(0-24h) was 42.6 µg·h/mL (Japanese cancer patients, plasma; oral, 600 mg, steady state, with proton pump inhibitor, geometric mean).
With `COc1cc2c(cc1Cc1cccc(Cl)c1F)c(=O)c(C(=O)O)cn2[C@H](CO)C(C)C` the AUC(0-24h) was 14 µg·h/mL (rhesus macaque, plasma; oral, 30 mg/kg, together with: FTC 20 mg/kg, TAF, cobicistat 30 mg/kg).
With `O=C(c1cc(Cl)c(O)c(Cl)c1)N1CS(=O)(=O)c2ccccc21` the AUC(0-24h) was 1.08 ± 0.213 µg·h/mL (healthy Chinese adults, fasted, plasma; oral, 1 mg single dose).
For `CC(C)(C(=O)NCC(F)(F)C(F)(F)F)C(=O)N[C@@H]1C(=O)Nc2ccccc2-c2ccccc21`, the AUC(0-24h) ratio was 14% (measured: total drug; advanced breast cancer patients, plasma; oral, median; baseline: combination over alone).
With `Br.Cc1ccc(Sc2ccccc2N2CCNCC2)c(C)c1` the AUC(0-24h) was 0.256 µg·h/mL (healthy adults, plasma; 10 mg at steady state, day 16, together with: omeprazole 40 mg single dose).
`Cc1ccc(-c2ncc(Cl)cc2-c2ccc(S(C)(=O)=O)cc2)cn1` gave an AUC(0-24h) of 22.2 µg·h/mL (patients after hip surgery, plasma; oral, 120 mg).
For `COc1ccc2[nH]c([S+]([O-])Cc3ncc(C)c(OC)c3C)nc2c1` (stereo not drawn), the AUC(0-24h) was 3.14 µg·h/mL (LC-MS/MS; healthy adults, plasma; oral, 40 mg/day for 7 days, day 25, steady state, mean, together with: icosapent ethyl 4 g/day).

A few entries again:
With `COc1cc2c(cc1Cc1cccc(Cl)c1F)c(=O)c(C(=O)O)cn2[C@H](CO)C(C)C` the AUC(0-24h) was 14 µg·h/mL (rhesus macaque, plasma; oral, 30 mg/kg, together with: FTC 20 mg/kg, TAF, cobicistat 30 mg/kg).
